Results pooled from the literature.
Several values in a cell are separate wells, animals, samples, runs or records. Numbers after ± are the reported error.

`Cn1cc([C@H]2C[C@H]3CSC(N)=N[C@@]3(c3ccc(F)cc3F)CO2)cn1` gave an Aβ40 level of 0.94 ng/mL (refers to: Aβx-40; Mus musculus wild-type, cerebrospinal fluid; subcutaneous, 50 mg/kg, 13 h).
`C[C@@H]1CCC[C@H](n2cnc(-c3cc(Cl)ccc3-n3cc(Cl)nn3)cc2=O)c2cc(ccn2)-c2c(cnn2C(F)F)NC1=O` — result for “concentration for aPTT prolongation”: 30 nM (pooled normal human plasma; IC1.2× aPTT, Actin FS reagent).
For `CN(C)C(=O)Oc1cccc([N+](C)(C)C)c1`, the train-of-four ratio was 98.5 (neuromuscular block reversal; rat; dose not given, 22 (unit not given), added: cisatracurium; relative to: T1 twitch).
The Fe2+ chelation of `COc1cccc(C2NCCc3cc(O)c(O)cc32)c1O` (centres unmarked) is reported as 92.7 ± 1.56% (ferrozine; cell-free; 100 µM, DMSO solvent).
The inhibition of `CN[C@@H]1COc2c(S(=O)(=O)NC(=O)Nc3c4c(cc5c3CCC5)CCC4)cnn2C1` is reported as 99.5% (refers to: IL-18; human participants, whole blood ex vivo; 900 mg twice daily, multiple doses, 144 h, IL-18, circulating, adjusted for, added: LPS/ATP; relative to: baseline).
`C=CCn1c(=O)c2cnc(Nc3ccc(N4CCN(C)CC4)cc3)nc2n1-c1ccc2c(n1)[C@@](O)(CC)CC2`: “tumour growth inhibition” 91.6% (OVCAR-3 xenograft, NOD/SCID mice; oral, 80 mg/kg, day 56, once daily intermittent).
`O=C(NC[C@H]1CN(c2ccc(N3CCOCC3=O)cc2)C(=O)O1)c1ccc(Cl)s1`: “prothrombin time AUC(0-48h)” 64.2 (human moderate renal impairment, plasma; 10 mg, geometric mean, unit not given; relative to: baseline).
`COc1cccc(C2NCCc3cc(O)c(O)cc32)c1` (centres unmarked) gave a Fe2+ chelation of 92.4 ± 1.85% (ferrozine; cell-free; 100 µM, DMSO solvent).
The lag time of `Cc1ccc(NC(=O)c2ccc(CN3CCN(C)CC3)cc2)cc1Nc1nccc(-c2cccnc2)n1` is reported as 145 s (platelet aggregation; platelet-rich plasma; 1 µM, DMSO 130.6, added: collagen 2 mg/mL).
`N#Cc1ccc2c(-c3ccncc3)c(-c3ccc(F)cc3)nn2c1` — result for “log2 fold change”: -0.589 (kinase binding, competitor, MIB/MS competition, refers to: CKA1; Candida albicans cell lysate; 100 nM; relative to: DMSO).
`N#Cc1ccc2c(c1)[C@H]1CCCN(C(=O)c3ccc4[nH]cnc4c3)[C@H]1C2` — result for “change from baseline”: 17.9 mg/dL (refers to: 2 h postprandial glucose; human, Phase II trial; oral, 20 mg once daily, day 28, adjusted mean, SE).
`C[C@@H](O)CCOC(=O)C[C@@H](C)O` gave a metabolite level of -6.8 ± 0.61 µmol/L (refers to: C12-OH/C10-DC acylcarnitine; human, plasma; 60 min, log2-transformed values).
`CC(C)NCC(O)c1ccc(O)c(O)c1` (centres unmarked) has a sarcomere length of 1.67 µm (ventricular cardiomyocytes, C57BL/6 mouse; dose not given, 0.6 s).
The 1,5-anhydroglucitol of `N#Cc1ccc2c(c1)[C@H]1CCCN(C(=O)c3ccc4[nH]cnc4c3)[C@H]1C2` is reported as 8.7 µg/mL (human, plasma; 360 mg, day 15).
`O=C(O)CNC(=O)Cc1ccccc1` has a sarcomere length of 1.62 µm (ventricular cardiomyocytes, C57BL/6 mouse; dose not given, 0.188 s).
`O=C(OC(C(F)(F)F)C(F)(F)F)N1CCN(Cc2cccc(Oc3ccccc3)c2)CC1` has a k3 of 0.075 min⁻¹ (PET blocking study; rhesus monkey, brain FCX; 0.01 mg/kg, compound pretreatment, added: [18F]T-401 tracer).
`COc1ccccc1[C@H](Cn1c(=O)n(C(C)(C)C(=O)O)c(=O)c2c(C)c(-c3ncco3)sc21)OC1CCOCC1`: “fractional hepatic DNL” 23 % new palmitate ([1-13C]acetate infusion, isotopomer analysis; overweight or obese healthy men, plasma VLDL-TG palmitate; oral, 20 mg single dose, 10 h post-dose, added: oral fructose).
`Cc1nn(-c2nc3c(F)cc(F)cc3s2)c(O)c1C(c1ccc(C(F)(F)F)cc1)c1c(C)nn(-c2nc3c(F)cc(F)cc3s2)c1O` has a histology score of 0 and 1 (refers to: pancreatic oedema; mouse, cerulein-induced acute pancreatitis; 25 mg/kg; direction not given).
`C[C@H](Oc1ccc(Br)cc1-c1ccon1)C(=O)O`: “difference from placebo” 0.06 mV (mean CMAP amplitude; human, tibialis anterior muscle; 400 mg, SAD).
For `CC(=O)Oc1cc2c(s1)CCN(C(C(=O)C1CC1)c1ccccc1F)C2` (centres unmarked), “patients with IPA above threshold” read 0% (platelet aggregation, light transmittance aggregometry; human, platelet-rich plasma; 30 min, IPA above 90 %, added: TRAP 5 µM; relative to: patients).
For `NC(=O)c1cnc2[nH]ccc2c1N[C@@H]1[C@@H]2CC3C[C@H]1C[C@@](O)(C3)C2`, the percent change was 0.48% (regulatory T cells, flow cytometry; Japanese humans, peripheral blood; 200 mg single dose; relative to: baseline).
Under “log2 fold change”, `Cc1n[nH]c2ccc(-c3cc(OC[C@@H](N)Cc4ccccc4)cnc3-c3ccoc3)cc12` is recorded as -0.106 (kinase binding, competitor, MIB/MS competition, refers to: AKL1; Candida albicans cell lysate; 100 nM; relative to: DMSO).
`O=c1cc(-c2ccccc2)oc2cc(O)c(O)c(O)c12`: “aortic arch plaque area” 7.76 ± 0.85% (Oil Red O staining; ApoE-/- mouse on high-fat diet; oral gavage, 20 doses every three days, 72 h).
Under “percent change from baseline”, `C[C@H]1C[C@H]2CSC(N)=N[C@@]2(c2nc(NC(=O)c3ccc(OC(F)F)cn3)cs2)CO1` is recorded as -36.4% (refers to: total Aβ; healthy adults, plasma; 3 mg single dose, 8 h post-dose; relative to: placebo).
For `c1ccc(-c2n[nH]cc2-c2ccnc3ccccc23)nc1`, “log2 fold change” read 0.985 (kinase binding, competitor, MIB/MS competition, refers to: KSP1; Candida albicans cell lysate; 1 µM; relative to: DMSO).
For `CN(C)C(=O)c1cc2cnc(Nc3ccc(N4CCNCC4)cn3)nc2n1C1CCCC1`, “normalized enrichment score” read 1.37 (RNA-seq GSEA, refers to: HALLMARK_XENOBIOTIC_METABOLISM gene set; MB002 tumour; concentration not given; relative to: vehicle, direction not given).
`CC1(C)CCC(CN2CCN(c3ccc(C(=O)NS(=O)(=O)c4ccc(NCC5CCOCC5)c([N+](=O)[O-])c4)c(Oc4cnc5[nH]ccc5c4)c3)CC2)=C(c2ccc(Cl)cc2)C1` gave an EC50 of 167 nM (cell killing; canine blood CD3+ T cells, dog 32; 24 h).
`C[C@@H](NC(=O)N1C(=O)[C@H](Cc2ccnc(N)c2)[C@H]1C(=O)O)C1CCCCC1` gave an aPTT AUEC of 6430 h·s (human; iv infusion, 0.3 mg/kg/h, 24 h).
For `CO[C@H]1CC[C@H](N2C(=O)CNc3ncc(-c4ccc(C(C)(C)O)nc4)nc32)CC1`, “pAKT change from baseline” read 1.4% (flow cytometry; stimulated monocytes, human, blood; 60 mg single dose, 24 h, median; relative to: baseline).
The intraocular pressure of `Cc1ccc(C(=O)OCc2ccc([C@@H](CN)C(=O)Nc3ccc4cnccc4c3)cc2)c(C)c1` is reported as 20 mmHg (normotensive Macaca cyclopis, right eye; 0.02 %, pre-dose).
`Cn1cc(Nc2nccc(-c3ccc4c(c3)CN(C3COC3)CC[C@H]4NC(=O)c3cn(C(C)(C)C)nn3)n2)cn1` — result for “pathway activation z-score”: -0.905 (refers to: vitamin C antioxidant action; splenic B cells, Mus musculus; 30 mg/kg, added: in vivo anti-IgD activation; relative to: vehicle, direction not given).
For `COc1cc2cc(-c3ccc(CC(=O)Nc4cc(C(C)(C)C(F)(F)F)no4)cn3)cnc2cc1OC`, “stable disease as best response” read 30% (human RET-altered advanced solid tumours; 75 mg, phase I other tumours, RECIST 1.1).
For `CSCCNc1nc(SCCC(F)(F)F)nc2c1ncn2[C@@H]1O[C@H](COP(=O)(O)OP(=O)(O)C(Cl)(Cl)P(=O)(O)O)[C@@H](O)[C@H]1O`, “patients with IPA above 90%” read 5.4% (platelet aggregation, light transmission aggregometry; human patients, platelet-rich plasma; dose not given, 3 h, added: TRAP 5 µM).
For `OC(CCN1CCCCC1)(c1ccccc1)C1CC2C=CC1C2` (centres unmarked), “EEG power, gamma, Fz-Cz” read 0.5 µV² (resting-state EEG; healthy elderly humans; oral, 4 mg, eyes closed, LS mean).
`C=CC[C@@H]1/C=C(\C)C[C@H](C)C[C@H](OC)[C@H]2O[C@@](O)(C(=O)C(=O)N3CCCC[C@H]3C(=O)O[C@H](/C(C)=C/[C@@H]3CC[C@@H](O)[C@H](OC)C3)[C@H](C)[C@@H](O)CC1=O)[C@H](C)C[C@@H]2OC`: mRNA level “no effect” (qPCR, refers to: Egfr, Fxyd2, Nedd4l; Wistar Kyoto rats, male, kidney cortex; ip, 0.5 mg/kg/day, day 28; relative to: vehicle).
`CC(c1cc2ccccc2s1)N(O)C(N)=O` (centres unmarked) gave an amount of 65 ± 20 pg/mL blood (refers to: 15-HEPE; human whole blood; 3 µM, added: Escherichia coli).
For `COC[C@@H](c1ccc(C(F)(F)F)cc1)N1CCN(C2(C)CCN(C(=O)c3c(C)ncnc3C)CC2)C[C@@H]1C`, “HIV-1 RNA decrease” read 0.76 log10 copies/mL (human, HIV infected; dose not given, week 2, low Cmin subjects).
`CN(C(=O)n1cnc(-c2ccc[n+]([O-])c2)c1)C1CCCCC1` — result for “change in licking score”: -62% (mice, formalin paw test; 0.3 mg/kg, late phase, added: anandamide 5 mg/kg i.p.; relative to: vehicle, direction not given).
`Cc1ccc(C(=O)Nc2ccnc(S(N)(=O)=O)c2)c(N2CCCC(F)(F)CC2)n1` — result for “total plasma concentration”: roughly 3 µM (rhesus macaque, plasma; concentration not given, minimum for significant effect).
For `CC(C)[C@H](NC(=O)[C@H](Cc1ccc(O)cc1)NC(=O)[C@H](Cc1ccc(O)cc1)NC(=O)[C@@H]1CCCN1C(=O)[C@H](CCC(=O)O)NC(=O)[C@H](CCC(=O)O)NC(=O)[C@H](Cc1c[nH]c2ccccc12)NC(=O)[C@@H]1CCCN1C(=O)[C@@H](NC(=O)[C@H](CCC(N)=O)NC(=O)c1ccc2c(c1)C(=O)OC21c2ccc(O)cc2Oc2cc(O)ccc21)C(C)C)C(=O)N[C@H](C(=O)N[C@@H](CCCCN)C(=O)N[C@@H](CCCCN)C(=O)N[C@@H](CO)C(=O)N[C@@H](CO)C(=O)NCC(=O)NCC(N)=O)C(C)C`, “share of responses” read 15.4% (nerve penetration depth; human head and neck surgery, nerves; 500 mg, slightly improved; relative to: white light).
For `COc1cc(Nc2ncc3c(n2)-c2ccc(Cl)cc2C(c2c(F)cccc2OC)=NC3)ccc1C(=O)O`, “median response score” read 1 (mouse, KT-10 Wilms tumour xenograft; 10.4 mg/kg; direction not given).

Repeated from above:
For `c1ccc(-c2n[nH]cc2-c2ccnc3ccccc23)nc1`, “log2 fold change” read 0.985 (kinase binding, competitor, MIB/MS competition, refers to: KSP1; Candida albicans cell lysate; 1 µM; relative to: DMSO).
For `CN(C)C(=O)c1cc2cnc(Nc3ccc(N4CCNCC4)cn3)nc2n1C1CCCC1`, “normalized enrichment score” read 1.37 (RNA-seq GSEA, refers to: HALLMARK_XENOBIOTIC_METABOLISM gene set; MB002 tumour; concentration not given; relative to: vehicle, direction not given).
`CC1(C)CCC(CN2CCN(c3ccc(C(=O)NS(=O)(=O)c4ccc(NCC5CCOCC5)c([N+](=O)[O-])c4)c(Oc4cnc5[nH]ccc5c4)c3)CC2)=C(c2ccc(Cl)cc2)C1` gave an EC50 of 167 nM (cell killing; canine blood CD3+ T cells, dog 32; 24 h).
`C[C@@H](NC(=O)N1C(=O)[C@H](Cc2ccnc(N)c2)[C@H]1C(=O)O)C1CCCCC1` gave an aPTT AUEC of 6430 h·s (human; iv infusion, 0.3 mg/kg/h, 24 h).
For `CO[C@H]1CC[C@H](N2C(=O)CNc3ncc(-c4ccc(C(C)(C)O)nc4)nc32)CC1`, “pAKT change from baseline” read 1.4% (flow cytometry; stimulated monocytes, human, blood; 60 mg single dose, 24 h, median; relative to: baseline).
The intraocular pressure of `Cc1ccc(C(=O)OCc2ccc([C@@H](CN)C(=O)Nc3ccc4cnccc4c3)cc2)c(C)c1` is reported as 20 mmHg (normotensive Macaca cyclopis, right eye; 0.02 %, pre-dose).
